Experimental data collected from several papers.
Numbered parts are unrelated; each lists some results of a single study.

Sample 1 — technique: RNAcompete; molecule type: RNA; medium: in vitro; concentration: 20 nM; notes: 7-mer, probes averaged, single round; baseline: mean of 7-mers; direction: higher = stronger binding
Target: PABPC1L2, full length, GST fusion (mouse, UniProt A0ABA7IW68)
Construct (chain): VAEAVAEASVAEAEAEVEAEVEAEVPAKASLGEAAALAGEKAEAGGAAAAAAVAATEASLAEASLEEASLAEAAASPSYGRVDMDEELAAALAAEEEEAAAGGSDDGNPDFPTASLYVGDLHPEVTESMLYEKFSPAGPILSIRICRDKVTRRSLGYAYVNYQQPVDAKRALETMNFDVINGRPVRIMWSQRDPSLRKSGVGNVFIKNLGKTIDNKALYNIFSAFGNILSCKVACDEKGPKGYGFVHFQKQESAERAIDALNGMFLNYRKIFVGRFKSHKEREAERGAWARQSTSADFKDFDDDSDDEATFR
Oligonucleotide	7-mer Z-score
CCUUCAC	-0.376
CAGCCAA	-0.00108
AAAAUGU	4.73
AUUUCUC	-0.44

Sample 2 — technique: protein-binding microarray; molecule type: double-stranded DNA, one strand shown; medium: in vitro; concentration: 940 nM top; notes: 60-bp whole probe; together with: salmon DNA 0.4 mg/ml; baseline: random background probes; direction: higher = stronger binding; all sequences stand within: GCCTAGCAC … GTCTTGATTCGCTTGACGCTGCTG
Target: Interferon regulatory factor 5, full length, phosphomimetic (IRF5, Homo sapiens, UniProt Q13568-2, residues 1-514, S451D/S453D/S456D/S462D)
Oligonucleotide	fitted relative affinity [z-score]
GACGGACTGGGGTATGGGGACGTGCTA	-0.226
GACGATTTCGGGTATCGAGACGTGCTA	1.57
TCAAAAGTCTTTTATGGTACTGTGCTA	-0.224
TAAGGTTTCCTTTTCCTTTAGTGCTAG	1.22
TTTACTTTCTGAATGCCCTTGTGCTAG	2.73
TCAGTTTCGTATCTTCATTGTGTGCTA	8.82

Sample 3 — technique: universal PBM; molecule type: double-stranded DNA, one strand shown; medium: in vitro; concentration: not given; direction: higher = stronger binding
Target: Sal-like protein 4, full length isoform B (SALL4, Homo sapiens, UniProt Q9UJQ4-2, residues 1-616)
Notes: 8-mer, flanks averaged, mean of replicates
Residues (chain): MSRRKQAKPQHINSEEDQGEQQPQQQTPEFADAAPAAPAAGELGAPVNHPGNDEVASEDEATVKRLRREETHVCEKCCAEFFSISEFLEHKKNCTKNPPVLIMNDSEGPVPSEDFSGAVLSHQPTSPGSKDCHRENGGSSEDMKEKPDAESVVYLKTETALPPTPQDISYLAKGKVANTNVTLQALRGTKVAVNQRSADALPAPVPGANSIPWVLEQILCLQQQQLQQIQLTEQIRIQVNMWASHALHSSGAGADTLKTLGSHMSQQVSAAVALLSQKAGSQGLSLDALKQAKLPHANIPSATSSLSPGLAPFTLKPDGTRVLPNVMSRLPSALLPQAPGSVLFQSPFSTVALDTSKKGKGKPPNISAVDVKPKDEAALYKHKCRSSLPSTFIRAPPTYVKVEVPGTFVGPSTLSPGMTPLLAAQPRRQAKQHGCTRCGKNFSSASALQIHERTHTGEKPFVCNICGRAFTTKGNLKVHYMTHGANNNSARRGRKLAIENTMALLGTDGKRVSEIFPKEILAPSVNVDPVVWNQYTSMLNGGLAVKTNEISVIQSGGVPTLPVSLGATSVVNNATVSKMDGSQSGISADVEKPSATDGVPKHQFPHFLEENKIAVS
Oligonucleotide	E-score
CTCCTCAC	-0.113
AGACTTCC	-0.0484
CACATTAC	0.172
AGTCGCCC	-0.165
ACGGCCTA	-0.135
CAACTCAG	-0.0498

Other studies, line by line
Substance	target	assay	test system	conditions	scale	endpoint	result
PhoQ, residues 284 288 289 292 302 303 SIHMAM	PhoP, residues 12 14 15 18 19 LHSVW (Escherichia coli, UniProt P23836)	Sort-seq, refers to: YFP reporter	E. coli	PhoQ-PhoP variant library, together with: 10 µM Mg2+	baseline: high Mg2+ state, higher = stronger signaling	fold induction	3.84

Excerpt of the above (sample 3):
Oligonucleotide	E-score
CTCCTCAC	-0.113
AGACTTCC	-0.0484
